Experimental data collected from several papers.
“And” joins repeats or separate records; there may be more than shown.
Target: Serine/threonine-protein kinase SIK2 (SIK2, Homo sapiens, UniProt Q9H0K1)
Sequence of UniProt Q9H0K1 (whole entry, looked up): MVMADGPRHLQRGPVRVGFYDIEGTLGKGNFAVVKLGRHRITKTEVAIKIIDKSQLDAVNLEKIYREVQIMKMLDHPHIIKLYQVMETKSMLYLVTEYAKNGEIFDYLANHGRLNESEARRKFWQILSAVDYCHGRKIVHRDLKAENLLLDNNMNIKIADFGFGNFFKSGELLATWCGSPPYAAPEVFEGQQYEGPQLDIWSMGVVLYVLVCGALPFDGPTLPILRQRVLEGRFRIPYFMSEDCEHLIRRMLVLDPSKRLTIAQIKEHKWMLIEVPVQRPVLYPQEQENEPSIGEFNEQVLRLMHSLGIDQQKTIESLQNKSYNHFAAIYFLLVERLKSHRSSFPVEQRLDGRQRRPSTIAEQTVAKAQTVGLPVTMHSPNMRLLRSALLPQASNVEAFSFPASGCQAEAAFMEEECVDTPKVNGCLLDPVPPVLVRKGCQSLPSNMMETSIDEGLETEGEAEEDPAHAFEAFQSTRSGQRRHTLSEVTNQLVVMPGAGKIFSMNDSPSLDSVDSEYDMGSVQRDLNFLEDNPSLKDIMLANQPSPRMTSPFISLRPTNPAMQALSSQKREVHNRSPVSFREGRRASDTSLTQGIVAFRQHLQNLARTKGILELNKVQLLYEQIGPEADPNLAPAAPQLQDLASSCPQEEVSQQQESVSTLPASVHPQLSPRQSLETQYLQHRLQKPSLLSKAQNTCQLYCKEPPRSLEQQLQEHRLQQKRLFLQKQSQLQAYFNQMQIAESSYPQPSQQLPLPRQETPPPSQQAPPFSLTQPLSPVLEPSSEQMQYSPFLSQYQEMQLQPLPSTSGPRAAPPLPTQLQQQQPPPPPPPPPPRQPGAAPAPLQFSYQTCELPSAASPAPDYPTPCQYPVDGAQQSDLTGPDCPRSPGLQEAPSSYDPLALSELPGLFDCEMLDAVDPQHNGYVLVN

SMILES | test | system | setting | scale | measurement | value
C=CC(=O)Nc1cccc(-c2cnc3[nH]cc(C(=O)NC(C)(C)C)c3n2)c1 | enzyme activity, inhibitor |  | 0.1 µM |  | inhibition | 16%
Nc1ncc2c(n1)-c1c([nH]c3ccc(C4=CCOCC4)cc13)CCC2 | binding, competition with immobilised ligand |  | 1 µM |  | remaining binding | 98%
O=C(Cc1ccc(OCc2ccccc2)cc1)NC1(C(=O)O)CCN(C(=O)c2ccc(-c3cccc(Cl)c3)cc2)CC1 | enzyme activity, inhibitor |  | 10 µM |  | activity vs control | 111%
CNC(=O)C1CCN(c2cc(C)c(F)cc2NC(=O)c2ccc(-c3cc(O)ccc3C)c(C)c2)CC1 | binding, competition with immobilised ligand |  | 1 µM |  | remaining binding | 95%
NC(=O)C[C@H]1CCc2sc3ncnc(O[C@H]4CC[C@H](N5CCOCC5)CC4)c3c21 | enzyme activity, inhibitor |  | 10 µM |  | inhibition | 9%
CNC1C[S+]2CC[S+]3CC[S+](C1)[Ru-4]321([N]=C=S)[n]2c3ccc(OC)cc3c3c4c(c5cc(F)c[n+]1c5c32)C(=O)NC4=O (stereo not drawn) | KinomeScan |  | 0.1 µM | baseline: untreated | remaining binding | 100%
Cc1ccc(-c2c(/C=C(\C#N)C(=O)NC(C)C)n(CCCO)c3ncnc(N)c23)cc1 | cell-free assay, competition with immobilised ligand |  | 1 µM |  | remaining binding | 52%
CNC(=O)C[C@H](Cc1ccc(C#N)cc1)NC(=O)c1cc(-c2ccc(CN[C@H](C)c3ccc(C)cc3)o2)ccc1Cl | enzyme activity, inhibitor |  | 1 µM |  | activity vs control | 93%
COCC12C(=O)NC3C4(C(OC)CC1O)C1CC5(O)C(OC)C(O)C(OC(C)=O)(C1C5OC(=O)c1ccccc1)C3(O)C(OC)C24 (stereo not drawn) | kinase activity, inhibitor, ProQinase kinase profiling |  | 25 µM | baseline: control | remaining activity | 104% and 92%
CCn1cc(C(=O)O)c(=O)c2c(N)c(F)c(NC3CCCCC3)cc21 | kinase activity |  | 0.1 µM, together with: ATP at Km |  | inhibition | -5.6%
Cc1ccc(C(=O)Nc2ccc(CN3CCN(C)CC3)c(C(F)(F)F)c2)cc1C#Cc1cnc2cccnn12 | target engagement, NanoBRET | human cells |  |  | upper asymptote | 13000
COc1cc(Nc2nccc(-c3cnn4nc(OC)ccc34)n2)cc(C(F)(F)F)c1 | binding, competition with immobilised ligand |  | 1 µM |  | remaining binding | 100%
CC(C)=CC1OC(C)(C)C2C=C3C(=O)C(Cl)=CC(O)C3C3C(O)C4OC4C(=O)C132 (stereo not drawn) | cell-free assay, competition with immobilised ligand |  | 10 µM |  | remaining binding | 98%
Cc1cccc(O[C@H]2CCC[C@@H](C(C)CNCc3ccncc3)C2)c1 (relative stereo) | enzyme activity, inhibitor |  | 10 µM |  | inhibition | -3%
C=CC(=O)N1CCCC(n2c(=O)c3ncccc3n(Cc3ccc(Oc4ccccc4)cc3)c2=O)C1 (stereo not drawn) | cell-free assay, competition with immobilised ligand |  | 1 µM |  | remaining binding | 99%

For quick reference, copied from above:
SMILES | test | system | setting | scale | measurement | value
O=C(Cc1ccc(OCc2ccccc2)cc1)NC1(C(=O)O)CCN(C(=O)c2ccc(-c3cccc(Cl)c3)cc2)CC1 | enzyme activity, inhibitor |  | 10 µM |  | activity vs control | 111%
CNC(=O)C1CCN(c2cc(C)c(F)cc2NC(=O)c2ccc(-c3cc(O)ccc3C)c(C)c2)CC1 | binding, competition with immobilised ligand |  | 1 µM |  | remaining binding | 95%
